# Measurements collected from several papers.
# Each line is one published result; not all experiments were run side by side.
# ADORA1: Adenosine receptor A1 (ADORA1, Homo sapiens, UniProt P30542)
# UniProt P30542, sequence (whole entry, looked up): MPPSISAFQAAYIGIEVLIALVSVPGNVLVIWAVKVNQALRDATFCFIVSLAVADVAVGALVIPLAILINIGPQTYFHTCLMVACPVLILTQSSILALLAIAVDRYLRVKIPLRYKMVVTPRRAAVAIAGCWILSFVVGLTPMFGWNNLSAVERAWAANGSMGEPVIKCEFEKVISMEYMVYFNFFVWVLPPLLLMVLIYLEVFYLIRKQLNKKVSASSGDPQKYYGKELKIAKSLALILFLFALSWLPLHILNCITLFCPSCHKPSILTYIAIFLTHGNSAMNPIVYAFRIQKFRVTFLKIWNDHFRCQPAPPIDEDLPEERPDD
# RIPK1: Receptor-interacting serine/threonine-protein kinase 1 (RIPK1, Homo sapiens, UniProt Q13546)
# UniProt Q13546, sequence (whole entry, looked up): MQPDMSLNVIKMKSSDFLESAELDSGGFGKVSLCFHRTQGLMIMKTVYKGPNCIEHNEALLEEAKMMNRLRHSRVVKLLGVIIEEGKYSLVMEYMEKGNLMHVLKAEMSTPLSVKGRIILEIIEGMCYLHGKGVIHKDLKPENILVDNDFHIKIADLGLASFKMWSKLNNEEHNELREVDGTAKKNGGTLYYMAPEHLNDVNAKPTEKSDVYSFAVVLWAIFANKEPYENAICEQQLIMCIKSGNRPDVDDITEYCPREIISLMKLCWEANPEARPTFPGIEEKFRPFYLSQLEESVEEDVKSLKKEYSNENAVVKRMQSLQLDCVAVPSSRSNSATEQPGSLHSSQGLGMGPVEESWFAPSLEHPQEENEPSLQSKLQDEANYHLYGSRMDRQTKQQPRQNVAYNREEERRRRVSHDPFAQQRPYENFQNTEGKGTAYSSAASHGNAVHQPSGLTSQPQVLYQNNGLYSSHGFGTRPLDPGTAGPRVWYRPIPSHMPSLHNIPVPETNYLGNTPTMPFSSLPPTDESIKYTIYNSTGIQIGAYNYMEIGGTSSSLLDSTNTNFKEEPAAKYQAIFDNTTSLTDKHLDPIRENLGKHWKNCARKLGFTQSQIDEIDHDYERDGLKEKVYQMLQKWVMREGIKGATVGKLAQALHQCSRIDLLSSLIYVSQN
# UniProt P18031, sequence (whole entry, looked up): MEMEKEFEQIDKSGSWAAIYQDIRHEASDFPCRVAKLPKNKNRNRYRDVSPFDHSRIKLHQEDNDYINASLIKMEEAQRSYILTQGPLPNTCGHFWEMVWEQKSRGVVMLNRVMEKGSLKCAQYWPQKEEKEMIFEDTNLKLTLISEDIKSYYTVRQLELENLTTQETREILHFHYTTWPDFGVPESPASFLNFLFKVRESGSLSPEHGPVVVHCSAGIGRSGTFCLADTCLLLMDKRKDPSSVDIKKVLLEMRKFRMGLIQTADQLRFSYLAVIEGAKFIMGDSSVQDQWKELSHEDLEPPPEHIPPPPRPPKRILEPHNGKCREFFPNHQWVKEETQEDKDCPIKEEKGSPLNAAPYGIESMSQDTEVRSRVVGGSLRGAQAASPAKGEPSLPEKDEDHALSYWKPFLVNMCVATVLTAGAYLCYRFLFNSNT
# UniProt Q9UBS0, sequence (whole entry, looked up): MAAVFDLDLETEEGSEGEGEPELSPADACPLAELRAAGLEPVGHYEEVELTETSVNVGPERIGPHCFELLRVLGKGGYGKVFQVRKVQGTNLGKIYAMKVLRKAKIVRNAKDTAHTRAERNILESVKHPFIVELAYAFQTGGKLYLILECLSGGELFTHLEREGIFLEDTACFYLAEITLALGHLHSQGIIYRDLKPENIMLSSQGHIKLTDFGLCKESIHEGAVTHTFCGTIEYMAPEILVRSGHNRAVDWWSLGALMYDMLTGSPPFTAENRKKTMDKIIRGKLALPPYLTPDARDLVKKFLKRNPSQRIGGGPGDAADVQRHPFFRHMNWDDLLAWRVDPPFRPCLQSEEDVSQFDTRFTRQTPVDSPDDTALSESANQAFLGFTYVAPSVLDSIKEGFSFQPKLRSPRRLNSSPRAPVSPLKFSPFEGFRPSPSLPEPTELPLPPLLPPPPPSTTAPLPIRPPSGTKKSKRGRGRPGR
# UniProt P48736, sequence (whole entry, looked up): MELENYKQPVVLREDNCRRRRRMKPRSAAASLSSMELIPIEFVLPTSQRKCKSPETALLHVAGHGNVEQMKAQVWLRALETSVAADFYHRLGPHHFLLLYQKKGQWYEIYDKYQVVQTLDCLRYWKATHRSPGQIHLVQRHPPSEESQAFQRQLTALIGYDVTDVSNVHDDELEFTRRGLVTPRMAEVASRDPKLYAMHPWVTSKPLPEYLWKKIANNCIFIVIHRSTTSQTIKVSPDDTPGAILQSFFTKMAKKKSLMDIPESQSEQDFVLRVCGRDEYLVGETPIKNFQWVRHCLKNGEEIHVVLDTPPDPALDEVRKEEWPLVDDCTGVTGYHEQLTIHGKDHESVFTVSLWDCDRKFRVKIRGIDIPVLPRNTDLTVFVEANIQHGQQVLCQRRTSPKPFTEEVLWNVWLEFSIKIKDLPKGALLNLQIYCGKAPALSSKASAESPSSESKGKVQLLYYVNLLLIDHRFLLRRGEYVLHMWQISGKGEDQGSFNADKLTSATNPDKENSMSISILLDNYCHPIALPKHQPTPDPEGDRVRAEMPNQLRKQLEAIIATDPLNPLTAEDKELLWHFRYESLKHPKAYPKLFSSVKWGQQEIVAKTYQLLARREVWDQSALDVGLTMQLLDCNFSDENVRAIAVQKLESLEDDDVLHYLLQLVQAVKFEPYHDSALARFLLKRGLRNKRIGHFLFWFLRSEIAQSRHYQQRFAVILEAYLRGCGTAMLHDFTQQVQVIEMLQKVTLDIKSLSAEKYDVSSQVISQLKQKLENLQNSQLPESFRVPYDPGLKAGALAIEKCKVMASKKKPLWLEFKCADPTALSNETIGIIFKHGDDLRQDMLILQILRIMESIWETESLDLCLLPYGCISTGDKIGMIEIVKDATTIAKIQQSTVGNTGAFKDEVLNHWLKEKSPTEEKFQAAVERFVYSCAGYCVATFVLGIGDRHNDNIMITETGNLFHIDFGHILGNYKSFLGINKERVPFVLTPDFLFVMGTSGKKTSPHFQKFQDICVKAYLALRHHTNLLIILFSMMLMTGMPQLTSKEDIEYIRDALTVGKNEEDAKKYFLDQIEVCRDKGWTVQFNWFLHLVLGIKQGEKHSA
# UniProt A0AVT1, sequence (whole entry, looked up): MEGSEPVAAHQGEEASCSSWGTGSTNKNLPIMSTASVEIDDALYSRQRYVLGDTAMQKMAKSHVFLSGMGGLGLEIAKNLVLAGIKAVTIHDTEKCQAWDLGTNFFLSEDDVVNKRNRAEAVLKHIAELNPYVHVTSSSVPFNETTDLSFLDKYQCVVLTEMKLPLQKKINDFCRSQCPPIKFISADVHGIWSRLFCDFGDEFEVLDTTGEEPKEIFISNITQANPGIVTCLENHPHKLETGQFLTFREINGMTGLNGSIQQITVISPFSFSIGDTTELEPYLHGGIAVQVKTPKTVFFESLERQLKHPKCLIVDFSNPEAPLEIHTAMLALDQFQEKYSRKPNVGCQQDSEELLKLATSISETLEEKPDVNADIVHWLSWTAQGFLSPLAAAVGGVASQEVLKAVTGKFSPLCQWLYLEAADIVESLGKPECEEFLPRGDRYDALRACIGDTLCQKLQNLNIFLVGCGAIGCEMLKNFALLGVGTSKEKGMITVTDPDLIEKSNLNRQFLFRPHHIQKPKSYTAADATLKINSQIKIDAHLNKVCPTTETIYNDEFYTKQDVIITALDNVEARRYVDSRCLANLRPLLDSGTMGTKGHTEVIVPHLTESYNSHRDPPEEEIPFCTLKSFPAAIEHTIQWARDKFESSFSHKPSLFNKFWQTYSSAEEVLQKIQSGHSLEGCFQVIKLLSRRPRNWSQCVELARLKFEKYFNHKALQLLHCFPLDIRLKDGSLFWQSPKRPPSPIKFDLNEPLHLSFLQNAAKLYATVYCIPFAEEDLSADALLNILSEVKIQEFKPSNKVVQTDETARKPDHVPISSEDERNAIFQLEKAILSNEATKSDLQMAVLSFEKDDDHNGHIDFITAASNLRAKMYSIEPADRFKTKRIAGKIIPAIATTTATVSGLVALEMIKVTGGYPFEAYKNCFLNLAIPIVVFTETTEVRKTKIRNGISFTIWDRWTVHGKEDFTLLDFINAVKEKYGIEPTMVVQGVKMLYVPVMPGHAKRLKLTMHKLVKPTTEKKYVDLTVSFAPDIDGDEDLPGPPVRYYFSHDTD
# UniProt Q16832, sequence (whole entry, looked up): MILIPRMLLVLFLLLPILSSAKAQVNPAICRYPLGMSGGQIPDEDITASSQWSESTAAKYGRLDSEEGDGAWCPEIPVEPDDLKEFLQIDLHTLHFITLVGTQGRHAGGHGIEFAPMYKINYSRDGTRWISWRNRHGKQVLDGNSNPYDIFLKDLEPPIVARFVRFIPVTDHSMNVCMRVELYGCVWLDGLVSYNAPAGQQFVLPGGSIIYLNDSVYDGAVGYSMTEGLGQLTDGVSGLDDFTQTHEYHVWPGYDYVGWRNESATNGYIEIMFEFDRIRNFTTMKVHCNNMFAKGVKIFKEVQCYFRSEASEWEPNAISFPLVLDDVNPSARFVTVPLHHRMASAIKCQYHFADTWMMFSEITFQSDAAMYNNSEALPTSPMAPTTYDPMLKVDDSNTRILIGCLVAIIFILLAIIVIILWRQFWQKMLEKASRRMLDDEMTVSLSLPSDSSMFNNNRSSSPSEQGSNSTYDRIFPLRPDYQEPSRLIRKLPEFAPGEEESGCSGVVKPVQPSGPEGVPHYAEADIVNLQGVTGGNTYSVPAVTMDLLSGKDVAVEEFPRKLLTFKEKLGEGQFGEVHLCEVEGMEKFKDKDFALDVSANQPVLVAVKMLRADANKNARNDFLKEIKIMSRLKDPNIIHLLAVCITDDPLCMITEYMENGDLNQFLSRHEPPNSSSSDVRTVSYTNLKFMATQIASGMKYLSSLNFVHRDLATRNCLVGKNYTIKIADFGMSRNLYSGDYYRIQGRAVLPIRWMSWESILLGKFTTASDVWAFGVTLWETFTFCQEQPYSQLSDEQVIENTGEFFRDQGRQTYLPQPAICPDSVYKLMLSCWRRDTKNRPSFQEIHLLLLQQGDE
Compound,target,test,system,setting,how to read,selectivity ratio
CC1(C)C(/C=C/C2=C(Oc3ccc(CCC(=O)NCCC(O)(P(=O)([O-])O)P(=O)(O)O)cc3)C(=C/C=C3/N(CCC[N+](C)(C)C)c4ccc(S(=O)(=O)[O-])cc4C3(C)C)/CCC2)=[N+](CCC[N+](C)(C)C)c2ccc(S(=O)(=O)[O-])cc21 (stereo not drawn),hydroxyapatite,"binding, NIR fluorescence imaging",,"5 µM, 30 min",baseline: hydroxyapatite over other calcium salts,8 fold
COc1ccc(-c2nc(CSc3nc(N)c(C#N)c(-c4ccc5c(c4)OCO5)c3C#N)cs2)cc1,ADORA1,"binding, radioligand competition",HEK293 membranes,added: [3H]DPCPX,baseline: A2A Ki over A1 Ki,~1000 fold
CCCC[C@H](NC(C)=O)C(=O)N[C@@H](CO)C(=O)N[C@H](C(=O)N1CCC[C@H]1C(=O)N[C@]1(C)CCCCCCC=CCCC[C@@](C)(C(=O)N[C@@H](Cc2ccccc2)C(=O)N[C@@H](CCCCN)C(=O)N[C@@H](CCCNC(=N)N)C(=O)N[C@@H](CC(C)C)C(=O)N[C@@H](CCC(N)=O)C(N)=O)NC(=O)[C@H](CCCNC(=N)N)NC(=O)[C@H](CCCC)NC(=O)[C@H](CC(C)C)NC(=O)[C@H](CCCNC(=N)N)NC(=O)[C@H](CCCNC(=N)N)NC(=O)[C@H](CCCNC(=N)N)NC1=O)[C@@H](C)O,"UBA6 (Homo sapiens, UniProt A0AVT1)","thioester transfer to USE1, inhibitor",,,baseline: IC50 of UBE1 over target,5 fold
Nc1ncnc2c1ncn2[C@@H]1O[C@H](C(=O)NCCCF)[C@@H](O)[C@H]1O,ADORA1,,,,baseline: Ki A2A over Ki A1,78 fold
CC(O)c1c(Oc2ccc(F)c(NC(=O)Cc3cccc(C(F)(F)F)c3)c2)ccc2nc(NC(=O)C3CC3)sc12 (stereo not drawn),RIPK1,KINOMEscan binding Kd,,,"baseline: RIPK1 over RIPK3, higher = more RIPK1-selective",6.4
COc1cccc(Cc2cc(CCC(=O)NCCNc3cccc4c(S(=O)(=O)O)cccc34)nn(CC(=O)Nc3ccc(Br)cc3)c2=O)c1,"FPR1 (Homo sapiens, UniProt P21462)","calcium mobilization, agonist",HL-60 transfected with FPR1 or FPR2,,baseline: FPR1 over FPR2,100 fold
Cc1cc2nc(NC(=O)C3CC3)sc2cc1Oc1ccc(F)c(NC(=O)Cc2cccc(C(F)(F)F)c2)c1,RIPK1,KINOMEscan binding Kd,,,"baseline: RIPK1 over RIPK3, higher = more RIPK1-selective",> 36
COc1cc2c(cc1OC)C1=NCCN1C(NC(=O)c1cccnc1)=N2,"PIK3CG (Homo sapiens, UniProt P48736)",,,,baseline: IC50 p110β over IC50 p110γ,28
O=C(Cc1cccc(C(F)(F)F)c1)Nc1cc(Oc2cc3sc(NC(=O)C4CC4)nc3cc2Br)ccc1F,RIPK1,KINOMEscan binding Kd,,,"baseline: RIPK1 over RIPK3, higher = more RIPK1-selective",> 28
CN1CCC=C(c2nsnc2OCCCN2CCN(CCCCC3CCN(CC(=O)N4c5ccccc5NC(=O)c5ccccc54)CC3)CC2)C1,"CHRM1 (Homo sapiens, UniProt P11229)",radioligand competition binding,CHO cells,,baseline: Ki M1 over Ki M2,23
CNC1C[S+]2CC[S+]3CC[S+](C1)[Ru-4]321([N]=C=S)[n]2c3ccc(OC)cc3c3c4c(c5cc(F)c[n+]1c5c32)C(=O)NC4=O (stereo not drawn),"RPS6KB2 (Homo sapiens, UniProt Q9UBS0)","enzyme activity, inhibitor, radioactive kinase",,added: ATP 100 µM,baseline: IC50 RPS6KB2 over IC50 S6K1,> 100 fold
CNC(=O)N1CCN(c2ccc(NC(=O)c3nc(N)sc3-c3ccccc3)cc2C(F)(F)F)CC1,"DDR2 (Homo sapiens, UniProt Q16832)","binding, binding competition",,,baseline: DDR1 over DDR2,~10 fold
N[C@@H](CCC(=O)N[C@@H](CS[Se]Cc1ccc(-c2cccc(C(O)c3ccc(Cl)c(Cl)c3)c2)cc1)C(=O)NCC(=O)O)C(=O)O (stereo partly drawn),"PTPN1 (Homo sapiens, UniProt P18031)",,,,baseline: IC50 PTPN1 over STEP,> 20 fold
O=C(Cc1cccc(C(F)(F)F)c1)Nc1cc(Oc2ccc3nc(NC(=O)C4CC4)sc3c2CO)ccc1F,RIPK1,KINOMEscan binding Kd,,,"baseline: RIPK1 over RIPK3, higher = more RIPK1-selective",13
Nc1nc2cnc(C(=O)N3CCOC[C@@H]3c3ccc(C(F)(F)F)cc3)cc2c2c1COC2,"Protein arginine N-methyltransferase 5, MTA-bound (PRMT5, Homo sapiens, UniProt O14744)","binding, surface plasmon resonance",,,"baseline: PRMT5-MTA over PRMT5-SAM affinity, higher = more MTA-selective",~60 fold

# For quick reference, copied from above:
Compound,target,test,system,setting,how to read,selectivity ratio
Cc1cc2nc(NC(=O)C3CC3)sc2cc1Oc1ccc(F)c(NC(=O)Cc2cccc(C(F)(F)F)c2)c1,RIPK1,KINOMEscan binding Kd,,,"baseline: RIPK1 over RIPK3, higher = more RIPK1-selective",> 36
